Measured values pooled from the literature.
Every numbered part comes from another study and shows a few of its results, in no order.

Block 1
Target: RNA binding protein fox-1 homolog 2, RRM domain, GST-SBP tag (RBFOX2, Homo sapiens, UniProt O43251-10, residues 100-194)
Technique: RNA Bind-n-Seq
Form: RNA
Matrix: in vitro
Concentration: 365 nM
Notes: natural RNA segment, single round, ends assumed
Relative to: no-protein control
Reading: higher = stronger binding
Quantity: RBNS enrichment (R)
Constant ends, left off below: GGGAGUUCUACAGUCCGACGAUC … UGGAAUUCUCGGGUGCCAA
Construct (chain): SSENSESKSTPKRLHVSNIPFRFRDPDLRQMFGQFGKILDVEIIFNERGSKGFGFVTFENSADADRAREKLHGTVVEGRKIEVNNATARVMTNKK
Strand = GCUUGCUUCCAUUGAUCAGUCUUUUACUUGAGGCAUUAAAUAUCUAAUUAAAUCGUGAAAUGGCAGUAUAGUCCAUGAUAUCUAAGGAGUUGGCAAGCUUAACAAAACCC; result = 0.446
Strand = GAGUGAUAAUUUAAAAUUGUUUCUAUGUAGAAUCAUUGUCUCUACUGUUGCCCUCUCUGUGUCUGCACACAUAAUGCCUCUCUCACUUUGGUGAAAUAUCAAAAAAAUGC; result = 0.83
Strand = ACUCCUGGUGCUUUGUACUACUGGUUCAGCGGCCUCGGGCUUCUUUUCUAUAUUAAUAAAGAAGAGUAAAAACUGUCAGUGAUGACACUGUUUAAUAUUGAUCUCACAAG; result = 0.283
Strand = UCAAACCCCGACCACCUGCCCAACCUGCUCUCCUCUUGCCACUGCCUCUUCCUCCCUCAUUCCACCUUCCCAUGCCCUGGAUCCAUCAGGCCACUUGAUGACCCCCAACC; result = 0.863
Strand = AAGUUCGGUGUUGGAGCGAUACUCAAUGUAGUCAGUCUACACCUGGACGUGUGGGCCACUUAAGCCCUCCCCACCCCCAUCCUAUUCCUGAAUAAAACCAGGAUAAUGGA; result = 0.176

Block 2
Target: Interferon regulatory factor 3, full length, phosphomimetic (IRF3, Homo sapiens, UniProt Q14653, residues 1-427, S386D/S396D/S398D/S402D/T404D/S405D)
Chain of UniProt Q14653 (whole entry, unmodified, looked up): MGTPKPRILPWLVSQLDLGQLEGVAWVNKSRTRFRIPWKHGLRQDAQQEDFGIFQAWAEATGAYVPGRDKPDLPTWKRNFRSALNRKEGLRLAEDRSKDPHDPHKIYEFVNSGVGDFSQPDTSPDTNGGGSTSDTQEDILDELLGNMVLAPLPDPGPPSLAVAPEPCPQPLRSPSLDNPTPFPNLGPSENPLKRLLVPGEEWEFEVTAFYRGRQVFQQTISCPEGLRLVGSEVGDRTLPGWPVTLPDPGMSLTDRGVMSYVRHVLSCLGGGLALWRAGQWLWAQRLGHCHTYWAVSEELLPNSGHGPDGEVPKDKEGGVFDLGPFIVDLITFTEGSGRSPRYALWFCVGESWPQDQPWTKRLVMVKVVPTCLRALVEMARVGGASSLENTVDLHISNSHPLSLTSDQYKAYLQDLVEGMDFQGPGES
Technique: protein-binding microarray
Form: double-stranded DNA, one strand shown
Matrix: in vitro
Concentration: 2540 nM top
Notes: 60-bp whole probe
With: salmon DNA 0.4 mg/ml
Relative to: random background probes
Reading: higher = stronger binding
Quantity: fitted relative affinity
Strand = GCCTAGCACGACGGTTTCGGTCTGGGGACGTGCTAGGTCTTGATTCGCTTGACGCTGCTG; result = 7.06 z-score
Strand = GCCTAGCACTGAGGTATCGGTTTCGGTTAGTGCTAGGTCTTGATTCGCTTGACGCTGCTG; result = 8.22 z-score
Strand = GCCTAGCACTTGTCTCCCCCATCTTGTTCCGTGCTAGTCTTGATTCGCTTGACGCTGCTG; result = 1.11 z-score
Strand = GCCTAGCACGACGGACTACTTATCCTGACGTGCTAGGTCTTGATTCGCTTGACGCTGCTG; result = 0.136 z-score

Block 3
Target: Histone acetyltransferase KAT6A, winged helix 1, GST fusion (KAT6A, Homo sapiens, UniProt Q92794, residues 1-85)
Technique: protein binding microarray
Form: double-stranded DNA, one strand shown
Matrix: in vitro
Concentration: not given
Notes: 8-mer, flanks averaged, mean of 2 arrays, mostly near background
Relative to: not given
Reading: higher = stronger binding
Quantity: E-score
Target sequence (chain): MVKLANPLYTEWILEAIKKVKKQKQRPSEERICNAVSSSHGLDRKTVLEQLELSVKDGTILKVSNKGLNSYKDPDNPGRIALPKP
Strand = GGAAGTAC; result = 0.171
Strand = GTGGGTCA; result = -0.0733
Strand = CGACACCC; result = 0.0235
Strand = GCCGGTCC; result = 0.38
Strand = ATCAACGC; result = -0.0102

Mixed results
Substance = PhoQ, residues 284 288 289 292 302 303 NLSRDF; target = PhoP, residues 12 14 15 18 19 TQAIL (Escherichia coli, UniProt P23836); test = Sort-seq, refers to: YFP reporter; system = E. coli; conditions = PhoQ-PhoP variant library, with: 10 µM Mg2+; scale = relative to: high Mg2+ state, higher = stronger signaling; quantity = fold induction; result = 6.81
